Assay results collected from several papers.
Each numbered part is a random draw from the data of one study; scales do not carry over between parts. Positions count from the first letter of the parent shown.
Chain of UniProt P29320 (whole entry, looked up): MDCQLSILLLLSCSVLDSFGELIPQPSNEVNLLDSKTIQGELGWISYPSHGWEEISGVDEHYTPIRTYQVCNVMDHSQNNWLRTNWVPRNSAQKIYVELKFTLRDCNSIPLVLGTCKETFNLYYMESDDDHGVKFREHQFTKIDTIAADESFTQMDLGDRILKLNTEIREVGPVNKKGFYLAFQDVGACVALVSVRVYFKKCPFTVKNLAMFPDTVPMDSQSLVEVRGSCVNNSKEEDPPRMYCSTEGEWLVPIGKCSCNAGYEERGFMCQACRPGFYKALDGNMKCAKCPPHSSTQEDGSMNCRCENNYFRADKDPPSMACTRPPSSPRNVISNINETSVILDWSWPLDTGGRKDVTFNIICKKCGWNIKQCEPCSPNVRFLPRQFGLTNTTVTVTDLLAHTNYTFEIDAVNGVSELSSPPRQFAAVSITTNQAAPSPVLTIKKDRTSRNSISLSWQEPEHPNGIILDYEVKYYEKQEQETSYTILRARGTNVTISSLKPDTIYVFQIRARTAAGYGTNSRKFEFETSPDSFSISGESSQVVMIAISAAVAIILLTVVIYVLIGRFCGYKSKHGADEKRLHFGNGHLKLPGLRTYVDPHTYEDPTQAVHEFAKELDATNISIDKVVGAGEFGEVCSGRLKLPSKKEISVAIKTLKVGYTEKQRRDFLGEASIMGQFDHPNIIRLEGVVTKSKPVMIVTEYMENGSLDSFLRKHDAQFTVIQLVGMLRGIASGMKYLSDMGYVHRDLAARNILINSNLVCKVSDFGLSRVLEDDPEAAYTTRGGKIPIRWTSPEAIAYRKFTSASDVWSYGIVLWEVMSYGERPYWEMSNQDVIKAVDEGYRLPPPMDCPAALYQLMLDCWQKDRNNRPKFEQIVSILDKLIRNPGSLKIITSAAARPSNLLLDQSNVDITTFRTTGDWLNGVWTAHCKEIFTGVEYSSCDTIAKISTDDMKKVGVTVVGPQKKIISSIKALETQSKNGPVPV
Chain of UniProt Q9UF33 (whole entry, looked up): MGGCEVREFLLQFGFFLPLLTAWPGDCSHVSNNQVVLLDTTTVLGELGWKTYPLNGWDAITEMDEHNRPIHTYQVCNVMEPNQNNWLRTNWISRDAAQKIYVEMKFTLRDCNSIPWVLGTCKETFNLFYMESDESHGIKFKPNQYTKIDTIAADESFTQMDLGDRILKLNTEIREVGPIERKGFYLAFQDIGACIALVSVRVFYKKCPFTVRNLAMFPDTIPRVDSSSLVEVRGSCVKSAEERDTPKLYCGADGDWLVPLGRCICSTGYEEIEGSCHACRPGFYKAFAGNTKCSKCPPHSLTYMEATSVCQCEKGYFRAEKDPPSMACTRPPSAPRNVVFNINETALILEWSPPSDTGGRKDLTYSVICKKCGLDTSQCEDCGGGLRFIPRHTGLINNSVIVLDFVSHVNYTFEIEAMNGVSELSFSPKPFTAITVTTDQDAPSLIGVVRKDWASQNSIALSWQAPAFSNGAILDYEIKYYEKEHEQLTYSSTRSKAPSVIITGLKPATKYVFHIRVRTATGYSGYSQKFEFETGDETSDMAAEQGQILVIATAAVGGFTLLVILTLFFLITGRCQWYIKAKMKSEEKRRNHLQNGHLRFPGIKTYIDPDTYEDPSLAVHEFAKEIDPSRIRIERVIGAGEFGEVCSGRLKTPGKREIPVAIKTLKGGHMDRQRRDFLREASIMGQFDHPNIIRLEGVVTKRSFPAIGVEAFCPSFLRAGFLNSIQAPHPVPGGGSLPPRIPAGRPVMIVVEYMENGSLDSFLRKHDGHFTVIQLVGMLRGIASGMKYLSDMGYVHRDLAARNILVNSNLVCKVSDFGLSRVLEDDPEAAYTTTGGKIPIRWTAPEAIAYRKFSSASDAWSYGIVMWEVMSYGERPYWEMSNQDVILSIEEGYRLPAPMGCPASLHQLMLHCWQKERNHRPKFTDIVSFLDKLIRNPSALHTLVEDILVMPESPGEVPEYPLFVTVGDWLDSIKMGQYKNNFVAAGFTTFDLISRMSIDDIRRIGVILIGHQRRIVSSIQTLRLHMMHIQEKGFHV
Chain of UniProt Q9UHD2 (whole entry, looked up): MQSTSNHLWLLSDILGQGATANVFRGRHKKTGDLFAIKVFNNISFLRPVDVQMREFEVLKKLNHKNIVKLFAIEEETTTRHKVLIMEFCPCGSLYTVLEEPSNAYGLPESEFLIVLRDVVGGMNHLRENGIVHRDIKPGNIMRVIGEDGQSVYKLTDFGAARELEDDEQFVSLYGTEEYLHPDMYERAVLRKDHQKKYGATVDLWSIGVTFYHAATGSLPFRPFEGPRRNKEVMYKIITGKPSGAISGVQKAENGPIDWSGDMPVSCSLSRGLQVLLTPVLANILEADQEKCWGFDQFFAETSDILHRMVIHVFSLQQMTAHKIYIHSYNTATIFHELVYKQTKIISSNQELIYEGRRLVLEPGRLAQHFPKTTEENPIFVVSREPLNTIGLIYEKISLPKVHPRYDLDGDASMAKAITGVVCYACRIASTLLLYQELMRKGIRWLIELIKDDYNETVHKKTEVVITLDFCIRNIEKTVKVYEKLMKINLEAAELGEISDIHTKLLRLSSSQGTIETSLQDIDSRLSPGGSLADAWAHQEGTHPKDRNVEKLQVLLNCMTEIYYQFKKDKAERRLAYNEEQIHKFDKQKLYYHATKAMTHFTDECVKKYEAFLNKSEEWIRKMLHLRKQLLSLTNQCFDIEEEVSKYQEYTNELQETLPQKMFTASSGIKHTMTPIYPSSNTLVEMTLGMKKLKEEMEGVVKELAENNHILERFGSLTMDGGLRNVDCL
Chain of UniProt Q9Y2U5 (whole entry, looked up): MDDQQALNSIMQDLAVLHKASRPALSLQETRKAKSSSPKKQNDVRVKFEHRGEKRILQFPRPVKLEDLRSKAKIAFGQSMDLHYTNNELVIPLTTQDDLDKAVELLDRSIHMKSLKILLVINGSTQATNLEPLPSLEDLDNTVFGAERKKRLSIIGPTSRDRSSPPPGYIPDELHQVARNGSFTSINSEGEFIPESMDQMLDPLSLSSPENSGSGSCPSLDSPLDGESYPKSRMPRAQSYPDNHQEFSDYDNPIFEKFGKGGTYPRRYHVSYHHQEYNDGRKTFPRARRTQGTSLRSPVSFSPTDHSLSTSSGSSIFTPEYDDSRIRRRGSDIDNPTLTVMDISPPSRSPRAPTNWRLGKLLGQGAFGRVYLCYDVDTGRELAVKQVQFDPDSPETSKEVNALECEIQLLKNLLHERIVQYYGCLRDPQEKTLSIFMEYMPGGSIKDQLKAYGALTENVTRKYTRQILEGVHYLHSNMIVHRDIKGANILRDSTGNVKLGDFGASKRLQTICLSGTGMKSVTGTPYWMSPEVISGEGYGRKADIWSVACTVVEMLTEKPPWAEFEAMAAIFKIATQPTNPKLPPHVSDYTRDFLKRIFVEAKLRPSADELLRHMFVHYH
Chain of UniProt P49336 (whole entry, looked up): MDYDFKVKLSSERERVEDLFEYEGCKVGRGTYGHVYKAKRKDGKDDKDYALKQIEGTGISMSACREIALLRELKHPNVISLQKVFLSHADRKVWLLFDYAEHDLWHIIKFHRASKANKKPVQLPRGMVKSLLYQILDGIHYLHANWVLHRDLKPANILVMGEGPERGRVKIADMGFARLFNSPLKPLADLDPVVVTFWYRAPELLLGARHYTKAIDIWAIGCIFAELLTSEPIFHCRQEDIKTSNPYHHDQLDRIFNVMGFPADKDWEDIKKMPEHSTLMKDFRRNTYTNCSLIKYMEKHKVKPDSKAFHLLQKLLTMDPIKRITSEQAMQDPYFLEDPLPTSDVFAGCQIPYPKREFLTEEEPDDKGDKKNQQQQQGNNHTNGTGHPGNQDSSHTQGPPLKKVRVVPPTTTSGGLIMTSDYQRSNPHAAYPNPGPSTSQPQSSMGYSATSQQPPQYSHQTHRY
Chain of UniProt Q9Y243 (whole entry, looked up): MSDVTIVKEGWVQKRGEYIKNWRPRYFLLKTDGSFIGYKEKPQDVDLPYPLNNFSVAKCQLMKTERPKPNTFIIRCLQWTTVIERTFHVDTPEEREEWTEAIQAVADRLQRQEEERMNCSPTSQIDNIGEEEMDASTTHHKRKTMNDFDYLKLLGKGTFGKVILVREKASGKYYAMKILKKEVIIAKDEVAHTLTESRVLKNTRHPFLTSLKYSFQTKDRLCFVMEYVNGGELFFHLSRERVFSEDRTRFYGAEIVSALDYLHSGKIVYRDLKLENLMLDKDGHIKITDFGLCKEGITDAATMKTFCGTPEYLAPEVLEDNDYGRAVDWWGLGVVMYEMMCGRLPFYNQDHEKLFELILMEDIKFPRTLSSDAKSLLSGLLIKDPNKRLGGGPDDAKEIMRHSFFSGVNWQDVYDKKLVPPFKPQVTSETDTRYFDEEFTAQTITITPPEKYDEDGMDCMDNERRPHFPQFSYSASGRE
Chain of UniProt Q8WTQ7 (whole entry, looked up): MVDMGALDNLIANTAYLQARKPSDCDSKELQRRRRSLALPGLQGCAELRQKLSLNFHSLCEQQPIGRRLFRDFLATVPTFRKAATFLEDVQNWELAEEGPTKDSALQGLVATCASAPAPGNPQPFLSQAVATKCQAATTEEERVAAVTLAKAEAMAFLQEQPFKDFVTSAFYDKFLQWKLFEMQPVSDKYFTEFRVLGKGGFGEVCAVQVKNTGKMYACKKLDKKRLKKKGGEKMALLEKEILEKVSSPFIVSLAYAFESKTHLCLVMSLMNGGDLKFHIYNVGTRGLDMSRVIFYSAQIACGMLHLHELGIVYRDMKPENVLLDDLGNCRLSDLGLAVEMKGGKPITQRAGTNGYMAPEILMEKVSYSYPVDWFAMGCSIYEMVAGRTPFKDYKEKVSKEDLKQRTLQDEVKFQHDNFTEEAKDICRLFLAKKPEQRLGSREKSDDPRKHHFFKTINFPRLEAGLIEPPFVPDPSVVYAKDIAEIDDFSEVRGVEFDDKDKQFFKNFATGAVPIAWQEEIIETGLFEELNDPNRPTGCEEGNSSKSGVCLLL

Series 1
SMILES: COc1ccc2cc(OCC3(C(=O)O)CN(C(=O)c4ccc(F)cc4)C3)ccc2c1
Method: competition with immobilised ligand
Tested at: 1 µM
target | read-out | remaining binding [%]
EPHA3 (Homo sapiens, UniProt P29320) | cell-free assay | 92
EPHA6 (Homo sapiens, UniProt Q9UF33) | cell-free assay | 100
ROS1 (Homo sapiens, UniProt P08922) | cell-free assay | 81
GRK7 (Homo sapiens, UniProt Q8WTQ7) | cell-free assay | 93
NUAK2 (Homo sapiens, UniProt Q9H093) | cell-free assay | 92
AKT3 (Homo sapiens, UniProt Q9Y243) | cell-free assay | 88
ACVR1 (Homo sapiens, UniProt Q04771) | cell-free assay | 100
TBK1 (Homo sapiens, UniProt Q9UHD2) | cell-free assay | 100
Tyrosine-protein kinase ABL1, phosphorylated (ABL1, Homo sapiens, UniProt P00519, E255K) | binding | 100
CDK8 (Homo sapiens, UniProt P49336) | cell-free assay | 94
STK25 (Homo sapiens, UniProt O00506) | cell-free assay | 100
MAP3K2 (Homo sapiens, UniProt Q9Y2U5) | cell-free assay | 96
IRAK4 (Homo sapiens, UniProt Q9NWZ3) | cell-free assay | 87

Series 2
Target: CCNB2, cyclin fold, Cln2 fusion (human)
Method: yeast growth competition, sequencing
Matrix: yeast
Setting: weak parent motif
Relative to: not given
Reading: higher = stronger binding
Starting sequence: RBL1 docking peptide (human); GSAKRRLFGEDPP; partner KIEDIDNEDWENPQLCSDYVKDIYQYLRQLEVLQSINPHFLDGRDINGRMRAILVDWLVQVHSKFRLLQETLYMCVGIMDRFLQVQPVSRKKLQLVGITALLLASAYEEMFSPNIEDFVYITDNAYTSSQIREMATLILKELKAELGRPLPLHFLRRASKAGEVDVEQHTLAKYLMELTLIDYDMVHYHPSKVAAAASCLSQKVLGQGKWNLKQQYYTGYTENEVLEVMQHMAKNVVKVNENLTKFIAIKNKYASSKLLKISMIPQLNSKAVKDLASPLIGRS
Substitution | normalised enrichment score
L7I | 0.666
F8T | 0.184
G9Q | 0.0782
D11M | 0.0401
F8P | 0.212
K4G | 0.0446
K4S | -0.527
G1K | 0.306

Series 3
Target: CREBZF, bZIP domain (human)
Method: DHFR protein complementation
Matrix: yeast
Setting: single substitutions, most at no-binding floor
Relative to: wild-type JUN-FOS pair
Reading: higher = stronger binding
Starting sequence: JUN, bZIP domain (human); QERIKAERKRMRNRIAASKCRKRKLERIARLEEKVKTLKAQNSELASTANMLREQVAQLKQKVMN; partner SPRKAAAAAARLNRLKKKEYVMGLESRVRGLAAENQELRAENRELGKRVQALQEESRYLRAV
Substitution | binding fitness [natural log]
Q55G | -1.57
A49V | -1.62
S47T | -1.49
K36V | -1.57
E44M | -1.41
S43T | -1.46
A46M | -1.42
E44I | -1.15

Other studies, line by line
Structure (SMILES) | target or system | system | setting | how to read | endpoint | value
c1ccc(-c2cnc(Nc3ccc(OCCN4CCCC4)cc3)s2)cc1 | panel of 300 human kinases |  | 0.5 µM | higher = more selective | Gini score | 0.65
COc1ccc(/C=C(/C)c2nc(C)c(-c3ccccc3)c(O)n2)cc1 |  | mouse, microsomes or S9 | 2 µM, 0.5 h |  | remaining compound | 65.6%

For quick reference, copied from above (series 3):
Substitution | binding fitness [natural log]
A49V | -1.62
S47T | -1.49
K36V | -1.57
E44M | -1.41
S43T | -1.46
